Published values of several laboratories.
Every numbered part comes from another study and shows a few of its results, in no order. Substitutions count along the parent as printed.

Set 1
Target: Sal-like protein 4, full length isoform A (SALL4, Homo sapiens, UniProt Q9UJQ4, residues 1-1053)
UniProt Q9UJQ4, sequence (whole entry, looked up): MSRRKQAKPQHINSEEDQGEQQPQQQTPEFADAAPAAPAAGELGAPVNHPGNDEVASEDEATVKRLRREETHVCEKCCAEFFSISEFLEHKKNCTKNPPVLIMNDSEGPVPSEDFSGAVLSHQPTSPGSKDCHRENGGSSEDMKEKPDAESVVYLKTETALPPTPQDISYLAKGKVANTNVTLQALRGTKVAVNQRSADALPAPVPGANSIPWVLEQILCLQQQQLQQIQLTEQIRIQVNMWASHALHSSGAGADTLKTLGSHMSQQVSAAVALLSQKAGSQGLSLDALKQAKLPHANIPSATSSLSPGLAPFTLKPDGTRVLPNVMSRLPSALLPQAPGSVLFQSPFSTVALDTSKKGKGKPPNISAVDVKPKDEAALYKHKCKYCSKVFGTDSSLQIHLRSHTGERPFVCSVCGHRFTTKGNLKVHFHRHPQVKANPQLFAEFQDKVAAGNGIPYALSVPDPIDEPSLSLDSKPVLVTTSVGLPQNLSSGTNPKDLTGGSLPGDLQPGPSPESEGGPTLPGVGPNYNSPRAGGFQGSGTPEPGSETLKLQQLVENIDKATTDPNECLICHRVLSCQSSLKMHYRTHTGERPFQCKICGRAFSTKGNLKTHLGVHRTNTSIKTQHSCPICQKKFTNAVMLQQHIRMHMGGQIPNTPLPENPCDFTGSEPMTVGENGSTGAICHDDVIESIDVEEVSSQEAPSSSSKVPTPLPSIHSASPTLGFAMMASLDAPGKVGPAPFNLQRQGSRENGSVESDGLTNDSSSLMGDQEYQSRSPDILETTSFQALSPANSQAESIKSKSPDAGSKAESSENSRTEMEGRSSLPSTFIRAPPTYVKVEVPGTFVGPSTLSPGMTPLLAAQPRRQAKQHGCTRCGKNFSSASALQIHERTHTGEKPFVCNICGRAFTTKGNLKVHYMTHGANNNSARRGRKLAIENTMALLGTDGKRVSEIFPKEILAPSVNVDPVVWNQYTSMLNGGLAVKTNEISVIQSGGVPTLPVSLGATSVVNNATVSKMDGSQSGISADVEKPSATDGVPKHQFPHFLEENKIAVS
Technique: universal PBM
Molecule type: double-stranded DNA, one strand shown
Medium: in vitro
Tested at: 600 nM
Setting: 8-mer, flanks averaged, mean of replicates
Reading: higher = stronger binding
`GCGCAGCA` gave an E-score of -0.317.
With `CCTGGCCG` the E-score was -0.281.
With `GTTCGAGA` the E-score was 0.0312.
`AGTGCGTG` gave an E-score of -0.215.
For `ACCACACT`, the E-score was -0.0331.
The E-score of `ATAACTAG` is reported as 0.313.
`CACTTACG` gave an E-score of 0.012.
For `AAGTATGG`, the E-score was 0.154.
With `AGGAGATA` the E-score was 0.0436.
With `CAGGTGCG` the E-score was -0.158.
`GAGCTGGC` gave an E-score of -0.281.
The E-score of `CCCACGCC` is reported as -0.27.
For `GACTGAGC`, the E-score was -0.298.
With `AGCTATGC` the E-score was 0.0179.
`CGGCCCGC` gave an E-score of -0.375.
The E-score of `CACAACCA` is reported as 0.0348.
`AGACCCCT` has an E-score of -0.229.
The E-score of `AGTGAACG` is reported as 0.036.
The E-score of `CCAGTGGA` is reported as -0.369.
For `ACGGAAAA`, the E-score was 0.163.
`ATAGGCAA` has an E-score of 0.127.
`CTAGAGTA` has an E-score of 0.00387.
`GACTATGA` has an E-score of 0.153.
`CCGCGATC` has an E-score of -0.314.
`CGAACGTC` has an E-score of -0.133.

Set 2
Target: ABI1, truncated, D143A, DHFR fusion (Arabidopsis thaliana)
Technique: DHFR PCA, deep sequencing
Medium: yeast
Setting: methotrexate growth selection, single substitutions
With: (+)-ABA 0.032 µM
Baseline: wild-type fitted maximum
Reading: higher = stronger binding
Parent: PYL1, truncated, DHFR fusion (Arabidopsis thaliana); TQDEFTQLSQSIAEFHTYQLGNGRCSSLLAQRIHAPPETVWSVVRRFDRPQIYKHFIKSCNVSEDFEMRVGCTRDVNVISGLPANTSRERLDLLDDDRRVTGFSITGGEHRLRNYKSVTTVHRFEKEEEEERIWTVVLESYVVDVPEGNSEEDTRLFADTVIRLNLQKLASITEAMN
Under “relative binding score”, `D97K` is recorded as 33.5%.
`G21E` — result for “relative binding score”: 32.5%.
For `S87I`, “relative binding score” read 50.8%.
`C72S` — result for “relative binding score”: 21.7%.
`H55M`: “relative binding score” 26.6%.
`S59N` — result for “relative binding score”: 7.81%.
`S26R` — result for “relative binding score”: 1.98%.
Under “relative binding score”, `F103R` is recorded as -2.63%.
Under “relative binding score”, `K168L` is recorded as -0.266%.
`S171L` — result for “relative binding score”: 16.6%.
For `F66T`, “relative binding score” read 19.6%.
For `G81S`, “relative binding score” read 32.6%.
For `Q31I`, “relative binding score” read -0.919%.
`S117C` — result for “relative binding score”: -0.85%.
Under “relative binding score”, `L156N` is recorded as -9.06%.
For `Q19W`, “relative binding score” read 8.16%.
`E109W` — result for “relative binding score”: -1.83%.
`E38D` — result for “relative binding score”: 23.4%.
Under “relative binding score”, `R123H` is recorded as 31.2%.

Set 3
Target: CCNE1, cyclin fold, Cln2 fusion (human)
Technique: yeast growth competition, sequencing
Medium: yeast
Setting: weak parent motif
Baseline: not given
Reading: higher = stronger binding
Parent: WEE1 docking peptide (human); HKTFRKLRLFDTP
`F10H` — result for “normalised enrichment score”: -0.0571.
`L9I` — result for “normalised enrichment score”: 0.346.
`K2G`: “normalised enrichment score” 1.05.
Under “normalised enrichment score”, `L9N` is recorded as 0.125.
For `F10S`, “normalised enrichment score” read -0.258.
For `K6S`, “normalised enrichment score” read 0.0912.
`R8W` — result for “normalised enrichment score”: 2.1.
`L7G`: “normalised enrichment score” 0.842.
For `R8N`, “normalised enrichment score” read 0.177.
`K2W` — result for “normalised enrichment score”: 1.12.
For `F10Q`, “normalised enrichment score” read -0.626.
Under “normalised enrichment score”, `F10L` is recorded as 0.201.
`F10R` — result for “normalised enrichment score”: 0.526.
Under “normalised enrichment score”, `F10I` is recorded as 0.709.
Under “normalised enrichment score”, `F4P` is recorded as 0.019.
For `R8T`, “normalised enrichment score” read 0.463.
Under “normalised enrichment score”, `R5T` is recorded as 0.561.

Set 4
Target: RNA binding protein fox-1 homolog 2, RRM domain, GST-SBP tag (RBFOX2, Homo sapiens, UniProt O43251-10, residues 100-194)
Technique: RNA Bind-n-Seq
Molecule type: RNA
Medium: in vitro
Tested at: 365 nM
Setting: natural RNA segment, single round, ends assumed
Baseline: no-protein control
Reading: higher = stronger binding
Construct (chain): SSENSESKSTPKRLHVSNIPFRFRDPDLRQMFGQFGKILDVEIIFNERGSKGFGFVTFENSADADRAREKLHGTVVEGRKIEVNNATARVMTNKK
For `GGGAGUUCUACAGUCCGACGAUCGUUCUCUCCAGUACCUUAAAUGGUGUUCACCGCUCUGAAGAAGCAUCUCUAUACAGGCAGUUAUUUUAUUUUUAGACUGUGUUAGAAUGUCUGGACUUAGCUUCAAACUCUGGAAUUCUCGGGUGCCAA`, “RBNS enrichment (R)” read 0.357.
Under “RBNS enrichment (R)”, `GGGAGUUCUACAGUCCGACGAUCUCAGAGAAAUUGCUCACAAAAGUUAGUGACAGUUGUAUUUAUUUUUUUAAGUUACAAUAAAAUGCUCUCAAGUCCUUUGAAUGUUCCAACAAAUUCAAAACUUCAUUUUCUGGAAUUCUCGGGUGCCAA` is recorded as 0.77.
For `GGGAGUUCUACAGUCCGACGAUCAGUUUCAACUGGCCUUACAUGUCCAUCCAGUGUUCCUAGACUUUGGGUGUUUCCCACCCAAUCCUGCUCCCUGACUCCCUAGAGACUAAGAGGACUCUCCCUGACCAAGGUGGAAUUCUCGGGUGCCAA`, “RBNS enrichment (R)” read 0.296.
`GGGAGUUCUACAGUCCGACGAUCGAAAGUCUGAAAGUUGAUAAGCUAGUUCGACUCCUUUAUAAUGAGAACCUGACAUCAGAGGAGAGUGUGAUUUACCUGGGCUCAUAUAAUUAGAAGCAUCUCCAGGCCUGUGGAAUUCUCGGGUGCCAA`: “RBNS enrichment (R)” 1.6.
`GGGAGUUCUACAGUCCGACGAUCGCACAGAGCUAAAAUCUCCAAAAGAACUGGGUGUGAACUCACAUGGUGGCUAGGAAGGCAGAGCGCCCUCAGCCCAGCAUAUAGCUGUGAGUAUGUAAUAAAUCACUGCCUGGAAUUCUCGGGUGCCAA`: “RBNS enrichment (R)” 0.519.
Under “RBNS enrichment (R)”, `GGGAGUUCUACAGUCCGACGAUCAACUACAGAGGGAUUAUGACAGGUCCUUGAGCCGCCUAACACUGGAUGACAUCGAACGUUUGGCCAGCCGCUUUCUACACCCUGAAGUGACUGAGGCUAUGGAAAAAGGGUGGAAUUCUCGGGUGCCAA` is recorded as 0.93.
Under “RBNS enrichment (R)”, `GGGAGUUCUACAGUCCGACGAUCAAAUCUAAUAUAUGAAGUAGUAAUGAAAAUGAAGUAGUAAUUUAACCAGAGUUCAUUUAUCCUUGAAUAAACCUUUUUAUUUUCACCUCAGAAAAGUGAGUGUACUGGCAUGGAAUUCUCGGGUGCCAA` is recorded as 0.381.
Under “RBNS enrichment (R)”, `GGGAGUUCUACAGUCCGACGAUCCCCUUCUCUCUCCUGAGGUGAAGCUUUUCCAGGUUUUGUUGAAGAGAUACCUGCCAGCACUUCUGCAAGCUGAAAUUUACAGAAGCAAAUUCACCAGAAGGGAAACAUCUUGGAAUUCUCGGGUGCCAA` is recorded as 0.288.
For `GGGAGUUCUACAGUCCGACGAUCGACAUCACCUCAUGCGAUGACCUCCCUCAUUCUGUGCUGCCUCAGCACUUAUCUUUUGAGUUUGUACUGUGGUCCAUGUACUUACUAAUAUGUUGCUUUGUAAUUAUUUUUGGAAUUCUCGGGUGCCAA`, “RBNS enrichment (R)” read 2.36.
`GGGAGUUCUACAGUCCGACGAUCCCAUAUUCUAAAUUUACAUAGUUUAUUUUCAGCCUUGAGUUGGAUGUUUUUUAGAAAUAUGCCCAGAGUAAGAAGCUGUGUUGGAGCCUAAGUCCUGCAAGCUGGGUCCUUGGAAUUCUCGGGUGCCAA` — result for “RBNS enrichment (R)”: 0.418.
`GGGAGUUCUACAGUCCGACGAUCACCCAGGAACCAAAUAUUCCAUUUUGGCUUCUGCUAGAGCAGUCAUGGUUCCUCUCCUAAAAGCCAUGGGCAGCAGUUUCCGAGGGCCUGCAUGAUCCACCUGCUGCACGUGGAAUUCUCGGGUGCCAA`: “RBNS enrichment (R)” 11.8.
`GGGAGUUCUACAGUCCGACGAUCUCCUGAGAGAUUUUCCAUUCUUGUCACCAUUCACUUGCAUUGUAAAGAUUUUCUUUGUCUGUUGUUGGCAUAGAUUCUUUUGUACAUAUUUAUUUAUUUGUGUUUAUAUAUGGAAUUCUCGGGUGCCAA` — result for “RBNS enrichment (R)”: 0.924.

Set 5
Target: TAR DNA-binding protein 43, full length, His tag (TARDBP, Homo sapiens, UniProt Q13148, residues 1-414)
Technique: RNA Bind-n-Seq
Molecule type: RNA
Medium: in vitro
Tested at: 20 nM
Setting: 6-mer, flanks averaged, single round
With: 150 mM LiCl
Baseline: input library
Reading: higher = stronger binding
For `UAUGUG`, “6-mer enrichment (R)” read 1.61.
Under “6-mer enrichment (R)”, `AAUACC` is recorded as 0.848.
Under “6-mer enrichment (R)”, `UAGUAC` is recorded as 0.86.
`UCUGCG`: “6-mer enrichment (R)” 0.926.
For `ACGAGC`, “6-mer enrichment (R)” read 0.852.
`UAUCUC`: “6-mer enrichment (R)” 0.882.
Under “6-mer enrichment (R)”, `GUGCCU` is recorded as 1.09.
`CGUGUA`: “6-mer enrichment (R)” 1.09.
Under “6-mer enrichment (R)”, `AUCUAU` is recorded as 0.892.
Under “6-mer enrichment (R)”, `AGUCAC` is recorded as 0.823.
`UUGACU`: “6-mer enrichment (R)” 0.944.
`UAUACA`: “6-mer enrichment (R)” 0.875.
`CAUCUG`: “6-mer enrichment (R)” 0.815.
`GGAGGU` — result for “6-mer enrichment (R)”: 1.23.
For `AGAAUU`, “6-mer enrichment (R)” read 0.942.
`UUUCAG` — result for “6-mer enrichment (R)”: 0.937.

Set 6
Target: Histone acetyltransferase KAT6A, winged helix 2, GST fusion (KAT6A, Homo sapiens, UniProt Q92794, residues 85-181)
Technique: protein binding microarray
Molecule type: double-stranded DNA, one strand shown
Medium: in vitro
Tested at: not given
Setting: 8-mer, flanks averaged, mean of 2 arrays, mostly near background
Baseline: not given
Reading: higher = stronger binding
Construct (chain): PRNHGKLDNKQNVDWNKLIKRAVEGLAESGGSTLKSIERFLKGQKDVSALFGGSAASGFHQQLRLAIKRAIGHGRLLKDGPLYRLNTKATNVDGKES
The E-score of `GAGACTTA` is reported as -0.113.
With `ACGGGGAT` the E-score was 0.0222.
With `GGAGCCCC` the E-score was 0.0215.
The E-score of `GACCTTCC` is reported as -0.0294.
For `GGAACGCA`, the E-score was 0.157.
`TAATCGCA` has an E-score of 0.183.
`GGGGTGGA` gave an E-score of -0.0901.
`AGGGGTAG` has an E-score of -0.133.
For `ATTATCGC`, the E-score was 0.0986.
`CTACAACA` gave an E-score of -0.0201.
`AAGCTATG` gave an E-score of 0.00129.
For `CTTCAGAA`, the E-score was 0.0421.
`GAAACACC` gave an E-score of 0.112.
`CTCGAAAA` gave an E-score of 0.113.
`ACGATCAA` has an E-score of -0.109.
With `GTATAGAA` the E-score was -0.117.
`CTGTGACC` has an E-score of -0.0533.
`AGACTATG` gave an E-score of -0.0986.
`CGATTACC` gave an E-score of -0.05.
For `AGAACAAA`, the E-score was 0.139.
With `GGCTGACA` the E-score was 0.0361.
With `ACCGGCTG` the E-score was 0.166.
For `GTGGCTCA`, the E-score was -0.184.
`AGTAGAAG` has an E-score of -0.105.
`CTTGTTAA` gave an E-score of -0.0297.

Mixed results
`PhoQ, residues 284 288 289 292 302 303 ASVMEA` has a fold induction of 21.3 (PhoP, residues 12 14 15 18 19 GQALL (Escherichia coli, UniProt P23836); Sort-seq, item: YFP reporter; E. coli; PhoQ-PhoP variant library, with: 10 µM Mg2+; baseline: high Mg2+ state, higher = stronger signaling).

Some of these lines once more (set 3):
Under “normalised enrichment score”, `F4P` is recorded as 0.019.
Under “normalised enrichment score”, `L9N` is recorded as 0.125.
`R8W` — result for “normalised enrichment score”: 2.1.
`L9I` — result for “normalised enrichment score”: 0.346.
For `R8T`, “normalised enrichment score” read 0.463.
Under “normalised enrichment score”, `R5T` is recorded as 0.561.
Under “normalised enrichment score”, `F10I` is recorded as 0.709.
Under “normalised enrichment score”, `F10L` is recorded as 0.201.
For `F10Q`, “normalised enrichment score” read -0.626.
For `F10S`, “normalised enrichment score” read -0.258.
`K2G`: “normalised enrichment score” 1.05.
For `K6S`, “normalised enrichment score” read 0.0912.
`F10R` — result for “normalised enrichment score”: 0.526.
